{"data": "Experimental data gathered from unrelated publications", "note": "A part holds a random share of what one study measured."}
{"data": "Sample 1", "target": "Sal-like protein 4, full length isoform A (SALL4, Homo sapiens, UniProt Q9UJQ4, residues 1-1053)", "method": "universal PBM", "molecule type": "double-stranded DNA, one strand shown", "medium": "in vitro", "tested at": "600 nM", "notes": "8-mer, flanks averaged, mean of replicates", "direction": "higher = stronger binding", "UniProt Q9UJQ4, sequence (whole entry, looked up)": "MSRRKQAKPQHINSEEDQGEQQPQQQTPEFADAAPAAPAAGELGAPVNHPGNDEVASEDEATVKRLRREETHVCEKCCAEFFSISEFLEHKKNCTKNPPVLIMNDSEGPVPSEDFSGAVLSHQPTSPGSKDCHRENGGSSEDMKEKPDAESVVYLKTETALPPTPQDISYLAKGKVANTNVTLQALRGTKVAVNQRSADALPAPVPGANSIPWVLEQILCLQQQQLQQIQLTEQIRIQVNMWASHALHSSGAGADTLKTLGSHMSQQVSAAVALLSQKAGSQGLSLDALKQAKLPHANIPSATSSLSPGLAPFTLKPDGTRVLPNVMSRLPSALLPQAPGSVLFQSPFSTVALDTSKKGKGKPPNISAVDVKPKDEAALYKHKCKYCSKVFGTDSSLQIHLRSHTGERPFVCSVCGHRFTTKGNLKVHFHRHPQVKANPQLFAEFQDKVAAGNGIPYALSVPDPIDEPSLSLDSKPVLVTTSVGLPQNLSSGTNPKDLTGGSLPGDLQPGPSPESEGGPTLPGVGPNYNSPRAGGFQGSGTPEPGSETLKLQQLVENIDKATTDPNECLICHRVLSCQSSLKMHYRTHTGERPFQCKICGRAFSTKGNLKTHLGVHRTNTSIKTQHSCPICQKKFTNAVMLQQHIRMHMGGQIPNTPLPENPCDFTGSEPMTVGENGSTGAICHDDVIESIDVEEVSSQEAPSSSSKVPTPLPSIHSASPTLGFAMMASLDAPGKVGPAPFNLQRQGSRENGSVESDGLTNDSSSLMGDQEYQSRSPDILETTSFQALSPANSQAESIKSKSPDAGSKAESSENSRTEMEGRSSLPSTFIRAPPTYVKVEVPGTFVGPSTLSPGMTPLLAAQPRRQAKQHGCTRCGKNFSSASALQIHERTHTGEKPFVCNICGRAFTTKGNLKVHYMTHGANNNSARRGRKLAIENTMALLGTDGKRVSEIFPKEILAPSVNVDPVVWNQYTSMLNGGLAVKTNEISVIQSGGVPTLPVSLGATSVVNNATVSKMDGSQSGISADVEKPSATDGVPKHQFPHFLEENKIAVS"}
{"Oligonucleotide": "GTAACTCA", "E-score": -0.0889}
{"Oligonucleotide": "AGTCCAAG", "E-score": 0.0159}
{"Oligonucleotide": "ACCGAACC", "E-score": -0.254}
{"Oligonucleotide": "CCGAATCC", "E-score": -0.287}
{"data": "Sample 2", "target": "Ras GTPase-activating protein-binding protein 1, C-terminal RGG region (G3BP1, Homo sapiens, UniProt Q13283)", "method": "RNA Bind-n-Seq", "molecule type": "RNA", "medium": "in vitro", "tested at": "1 µM", "notes": "whole 134-nt RNA, ends assumed", "added": "150 mM KCl", "relative to": "input library", "direction": "higher = stronger binding", "UniProt Q13283, sequence (whole entry, looked up)": "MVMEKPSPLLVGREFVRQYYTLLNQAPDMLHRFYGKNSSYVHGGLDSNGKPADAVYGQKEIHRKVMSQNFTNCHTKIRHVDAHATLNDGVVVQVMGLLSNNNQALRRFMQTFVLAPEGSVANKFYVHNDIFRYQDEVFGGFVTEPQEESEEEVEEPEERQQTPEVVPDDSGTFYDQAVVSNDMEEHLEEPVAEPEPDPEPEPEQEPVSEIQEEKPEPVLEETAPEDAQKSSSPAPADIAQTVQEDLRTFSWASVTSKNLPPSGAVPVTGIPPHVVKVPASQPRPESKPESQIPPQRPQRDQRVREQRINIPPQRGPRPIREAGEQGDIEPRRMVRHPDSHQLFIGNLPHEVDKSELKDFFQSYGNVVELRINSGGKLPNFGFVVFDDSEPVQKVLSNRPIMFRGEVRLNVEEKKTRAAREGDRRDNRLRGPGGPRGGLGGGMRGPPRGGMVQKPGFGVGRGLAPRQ"}
{"Oligonucleotide": "GGGAGUUCUACAGUCCGACGAUCAGUCCUGUGCUACACAUCGUAUGUACCGAAUCGGAAAAAGGGAAAAAGGGAAAAAGGAAAGUAUUAUGUUACGCCGUUCGGAUCUGCACUUGGAAUUCUCGGGUGUCAAGG", "log2 enrichment": -1.76}
{"Oligonucleotide": "GGGAGUUCUACAGUCCGACGAUCACCAUGCAGGUGGGCAUCGUUGGGAAGUGGGGCAAGGGGGGGAUAGGGAGGGGGGUAACACUUUGGGAACAGGUGGUCCCAGGUCGUUUCUGGAAUUCUCGGGUGUCAAGG", "log2 enrichment": -0.88}
{"Oligonucleotide": "GGGAGUUCUACAGUCCGACGAUCUGGCCCUGGUGGCAUGCGGGGAGGAUGAGGUGGCCUCAUGGAUCGUGGUGGUCCCGGUGGAAUGUUCAGAGGUGGCCGUGGUGGAGACAGUGGAAUUCUCGGGUGUCAAGG", "log2 enrichment": 2.18}
{"Oligonucleotide": "GGGAGUUCUACAGUCCGACGAUCCAAGUCCUGUGCUACACAUCGUAUGUACCGAAUCGGAAAAGGAAAAGGAAAAGGGAAAGUAUUAUGUUACGCCGUUCGGAUCUGCACUUCUGGAAUUCUCGGGUGUCAAGG", "log2 enrichment": -1.87}
{"data": "Sample 3", "target": "Interferon regulatory factor 5, full length, phosphomimetic (IRF5, Homo sapiens, UniProt Q13568-2, residues 1-514, K96S/S451D/S453D/S456D/S462D)", "method": "protein-binding microarray", "molecule type": "double-stranded DNA, one strand shown", "medium": "in vitro", "tested at": "250 nM", "notes": "60-bp whole probe", "added": "salmon DNA 0.4 mg/ml", "relative to": "random background probes", "direction": "higher = stronger binding", "shared flanks, not repeated": "GCCTAGCAC … GTCTTGATTCGCTTGACGCTGCTG"}
{"Oligonucleotide": "TTAGGTTTCCTTTTCCTGTAGTGCTAG", "log fluorescence": "1.54 z-score"}
{"Oligonucleotide": "TTAGGTATCGGGACTGTGTTAGTGCTA", "log fluorescence": "1.86 z-score"}
{"Oligonucleotide": "TCAGTTTCGTATCTTCATACTGTGCTA", "log fluorescence": "8.54 z-score"}
{"Oligonucleotide": "TTATTTTTTTTATTTATAAAGTGCTAG", "log fluorescence": "1.61 z-score"}
{"Oligonucleotide": "AACGGTATCGGGTTTCGGGACGTGCTA", "log fluorescence": "4.98 z-score"}
{"data": "Mixed results"}
{"Molecule": "PhoQ, residues 284 288 289 292 302 303 ASSHFY", "target": "PhoP, residues 12 14 15 18 19 LYHSL (Escherichia coli, UniProt P23836)", "assay": "Sort-seq, measured: YFP reporter", "test system": "E. coli", "setting": "PhoQ-PhoP variant library, added: 10 µM Mg2+", "how to read": "relative to: high Mg2+ state, higher = stronger signaling", "endpoint": "fold induction", "value": 19.6}
{"note": "Some of these lines once more (sample 2):"}
{"Oligonucleotide": "GGGAGUUCUACAGUCCGACGAUCACCAUGCAGGUGGGCAUCGUUGGGAAGUGGGGCAAGGGGGGGAUAGGGAGGGGGGUAACACUUUGGGAACAGGUGGUCCCAGGUCGUUUCUGGAAUUCUCGGGUGUCAAGG", "log2 enrichment": -0.88}
{"Oligonucleotide": "GGGAGUUCUACAGUCCGACGAUCUGGCCCUGGUGGCAUGCGGGGAGGAUGAGGUGGCCUCAUGGAUCGUGGUGGUCCCGGUGGAAUGUUCAGAGGUGGCCGUGGUGGAGACAGUGGAAUUCUCGGGUGUCAAGG", "log2 enrichment": 2.18}
